Published values gathered from unrelated publications.
Numbered parts are unrelated; each lists some results of a single study. Changes are numbered by the printed parent chain.

Block 1
Target: CCNB2, cyclin fold, Cln2 fusion (human)
Method: yeast growth competition, sequencing
Medium: yeast
Notes: weak parent motif
Reference: not given
Direction: higher = stronger binding
Starting sequence: RBL1 docking peptide (human); GSAKRRLFGEDPP; partner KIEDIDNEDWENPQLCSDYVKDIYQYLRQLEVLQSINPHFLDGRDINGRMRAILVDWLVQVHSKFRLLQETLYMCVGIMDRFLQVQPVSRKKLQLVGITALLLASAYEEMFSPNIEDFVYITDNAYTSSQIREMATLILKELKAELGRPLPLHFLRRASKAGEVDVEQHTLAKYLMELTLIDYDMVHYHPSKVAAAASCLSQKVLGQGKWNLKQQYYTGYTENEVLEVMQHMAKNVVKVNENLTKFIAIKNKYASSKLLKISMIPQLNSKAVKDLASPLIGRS
For `R5K F8L`, “normalised enrichment score” read 0.237.
Under “normalised enrichment score”, `P13N` is recorded as 0.0525.
For `R5K`, “normalised enrichment score” read -0.0285.
`L7M`: “normalised enrichment score” 0.258.
`E10M` — result for “normalised enrichment score”: 0.476.
Under “normalised enrichment score”, `D11T` is recorded as 0.454.
Under “normalised enrichment score”, `P12F` is recorded as -0.0311.
`R6P`: “normalised enrichment score” -0.352.
Under “normalised enrichment score”, `A3G` is recorded as 0.121.
`S2G`: “normalised enrichment score” 0.112.
`D11R`: “normalised enrichment score” 0.0728.
Under “normalised enrichment score”, `D11H` is recorded as 0.201.
Under “normalised enrichment score”, `R5A` is recorded as -0.43.
Under “normalised enrichment score”, `A3P` is recorded as -0.432.
For `G9D`, “normalised enrichment score” read 0.403.

Block 2
Target: RNA binding protein fox-1 homolog 2, RRM domain, GST-SBP tag (RBFOX2, Homo sapiens, UniProt O43251-10, residues 100-194)
Method: RNA Bind-n-Seq
Form: RNA
Medium: in vitro
Concentration: 365 nM
Notes: natural RNA segment, single round, ends assumed
Reference: no-protein control
Direction: higher = stronger binding
Target sequence (chain): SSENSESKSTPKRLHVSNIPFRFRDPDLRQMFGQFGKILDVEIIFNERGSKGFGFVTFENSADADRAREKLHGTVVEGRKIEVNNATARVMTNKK
`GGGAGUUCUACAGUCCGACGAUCAAUCAGCCUUGGACAGUGCCGCCUUCCAGAGCAGAAUCACUGAGCCCCACGGCUGAAGCUGCAUCUGAUGAAACUGAUGGGUACUGCUUGUCCCUCAGCUCACACUUGGCUGGAAUUCUCGGGUGCCAA`: “RBNS enrichment (R)” 0.34.
Under “RBNS enrichment (R)”, `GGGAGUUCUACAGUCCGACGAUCGUGAAUCCUGGAUUCUGAGUAAGUUCCAGGGUUCUGGCCUUGAAGCCUUGGACUACACACAUUUCAAACAAAACCAAAUGCUGUCGUCGACAAGCCAGCACAGGCGAAGUUGGAAUUCUCGGGUGCCAA` is recorded as 0.234.
Under “RBNS enrichment (R)”, `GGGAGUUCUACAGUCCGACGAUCGUAAUUUAAGGUCUGUUCACAGCUGUAAUUAUUAUUAUUUUCUACAAUAAAUGGCACCUGCAUACAGAAAGGUUUGGGCUGUUCUCUAUCUGUGGAUGGGACUGGGCUGGUGGAAUUCUCGGGUGCCAA` is recorded as 0.406.
For `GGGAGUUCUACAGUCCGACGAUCCAUGUGCAUUAAAUACUUUGCCAGCACUGCCUUUGCCAGCAUCCUAAAUCUGGAGUUUUACAAAGAAGGAAACUGUAUCUUUAGGUUAAUCAAAGCUAUGCAUUUCAUAUUGGAAUUCUCGGGUGCCAA`, “RBNS enrichment (R)” read 0.601.
For `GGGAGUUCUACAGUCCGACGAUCUCUCAUUAACUGACAGUAUGCCCAUUUGUUUUUAUGGCUUUCUUAUCUAAACUGCACUGAUGAACUAGAUUAAAGCCUUGGGAGAUUUAUACUAUAAAUUCAGUGAUGGCUGGAAUUCUCGGGUGCCAA`, “RBNS enrichment (R)” read 2.73.
`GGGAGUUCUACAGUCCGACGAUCUCUGUAGACUUUUUCUUCUGGCCCUUGUCCCUGCCAGCAAAACGCCCCUUUUCUGAUCAUUCGUGCGCAGAGGGCCUCCCAGUAAUGCCACGCUCUCCAUGCUAGAGAGCUGGAAUUCUCGGGUGCCAA`: “RBNS enrichment (R)” 1.09.
`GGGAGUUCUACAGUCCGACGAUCGCCUCCCCUCCUUUUGAUGCUCAGCCCACUGUGAAGAGUGAGCUUGUUUUGUAAGCCACAUUGGUUCCUGUGAGCAUCUGACCGUCCCCCAUCGAGUAUUUCCCCCGGAAUGGAAUUCUCGGGUGCCAA`: “RBNS enrichment (R)” 0.978.
For `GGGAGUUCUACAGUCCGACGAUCAACUAGCUCUAAAGCUAGUUAGUGACAAAGUUGGAUACCAAAAAUAGCCAACACUAUGACAUAAAAACUUUGUGUUCAAAAUGUACAAUUCACUUUAUACAUUAUUAAUAUGGAAUUCUCGGGUGCCAA`, “RBNS enrichment (R)” read 0.344.

Block 3
Target: ABI1, truncated, D143A, DHFR fusion (Arabidopsis thaliana)
Method: DHFR PCA, deep sequencing
Medium: yeast
Notes: methotrexate growth selection, single substitutions
Added: (+)-ABA 0.39 µM
Reference: wild-type fitted maximum
Direction: higher = stronger binding
Starting sequence: PYL1, truncated, DHFR fusion (Arabidopsis thaliana); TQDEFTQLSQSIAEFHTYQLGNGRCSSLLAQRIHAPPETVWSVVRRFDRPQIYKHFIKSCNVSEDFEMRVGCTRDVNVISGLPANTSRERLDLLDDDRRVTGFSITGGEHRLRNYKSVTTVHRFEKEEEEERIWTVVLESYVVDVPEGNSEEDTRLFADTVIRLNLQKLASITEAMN
Under “relative binding score”, `V143S` is recorded as -11.4%.
For `R99A`, “relative binding score” read 2.17%.
`T135I` — result for “relative binding score”: -13.7%.
For `R98I`, “relative binding score” read 4.52%.
`V100M` — result for “relative binding score”: 19.7%.
For `G108F`, “relative binding score” read -10.3%.
`I12S` — result for “relative binding score”: -3.93%.
For `E38L`, “relative binding score” read -5.67%.
Under “relative binding score”, `E151Y` is recorded as 1.45%.
Under “relative binding score”, `E67L` is recorded as 20.3%.

Block 4
Target: Fragile X messenger ribonucleoprotein 1, C-terminal low-complexity region (Fmr1, Mus musculus, UniProt P35922)
Method: RNA Bind-n-Seq
Form: RNA
Medium: in vitro
Concentration: 200 nM
Notes: whole 134-nt RNA, ends assumed
Added: 150 mM LiCl
Reference: input library
Direction: higher = stronger binding
Each molecule: 7-deaza-guanosine replaces G
For `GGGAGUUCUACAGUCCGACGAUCUUAAAGAAGAGGGUGUGCGGGACGUCCUUAAGGAUGUACUGCUCCCAUGGUACAAUGCCUAUCGCUUCUUAAUCCAGAACGUUCUGAGGCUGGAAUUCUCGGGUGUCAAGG`, the log2 enrichment was -2.32.
`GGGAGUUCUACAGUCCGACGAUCCAAGUCCUGUGCUACACAUCGUAUGUACCGAAUCGGGGUUUGGGGUGGGGUGGGGAAAGUAUUAUGUUACGCCGUUCGGAUCUGCACUUCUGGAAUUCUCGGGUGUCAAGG` gave a log2 enrichment of -0.571.
For `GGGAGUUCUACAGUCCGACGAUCCACAGACAACACGCACCCACACAGACACAGAGGGAAGGGGUUGGGAUGGGGACAGGGUGCACAGCAGGGCGGGGUUGGACCCCAGCCCCUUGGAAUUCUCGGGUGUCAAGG`, the log2 enrichment was 0.9.
`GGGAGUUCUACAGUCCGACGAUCUGUGCUACACAUCGUAUGUACCGAAUCGGGGCCCCCCCGGGCCCCCCCGGGGCCCCCCCGGGGAAAGUAUUAUGUUACGCCGUUCGGAUCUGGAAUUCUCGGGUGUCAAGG` gave a log2 enrichment of -1.35.
With `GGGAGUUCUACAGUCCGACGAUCCUCAAGUCCUGUGCUACACAUCGUAUGUACCGAAUCGGUUUGGUUUGGGUUUGGAAAGUAUUAUGUUACGCCGUUCGGAUCUGCACUUCCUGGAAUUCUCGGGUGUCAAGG` the log2 enrichment was -0.327.
For `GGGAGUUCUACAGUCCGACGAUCCCUGUGCUACACAUCGUAUGUACCGAAUCGGGGCCCCCCCGGCCCCCCCGGCCCCCCCGGGAAAGUAUUAUGUUACGCCGUUCGGAUCUGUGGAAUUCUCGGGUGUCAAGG`, the log2 enrichment was 0.892.
For `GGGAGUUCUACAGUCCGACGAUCUCCUGUGCUACACAUCGUAUGUACCGAAUCGGGAAAAAAGGGAAAAAAGGGAAAAAAGGGAAAGUAUUAUGUUACGCCGUUCGGAUCUGCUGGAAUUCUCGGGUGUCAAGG`, the log2 enrichment was 0.277.
`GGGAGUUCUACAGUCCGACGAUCCUCAAGUCCUGUGCUACACAUCGUAUGUACCGAAUCGGUUUGGAAAAAGGAGGAAAGUAUUAUGUUACGCCGUUCGGAUCUGCACUUCCAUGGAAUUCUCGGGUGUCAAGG` gave a log2 enrichment of -0.237.

Block 5
Target: Histone acetyltransferase KAT6A, winged helix 2, GST fusion (KAT6A, Homo sapiens, UniProt Q92794, residues 85-181)
Method: protein binding microarray
Form: double-stranded DNA, one strand shown
Medium: in vitro
Concentration: not given
Notes: 8-mer, flanks averaged, mean of 2 arrays, mostly near background
Reference: not given
Direction: higher = stronger binding
Target sequence (chain): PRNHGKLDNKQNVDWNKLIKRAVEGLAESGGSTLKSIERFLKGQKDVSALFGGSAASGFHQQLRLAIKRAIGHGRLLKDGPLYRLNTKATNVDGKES
For `AAAGCCTT`, the E-score was -0.168.
`GTTCCTAA` gave an E-score of -0.018.
The E-score of `GCCTTCCC` is reported as 0.00809.
`CAGGCGCC` gave an E-score of 0.167.
The E-score of `ACAAGGAC` is reported as -0.0724.
For `GGAATAGA`, the E-score was -0.0301.
`CGTTTCTA` has an E-score of -0.0456.
The E-score of `ACGGACCA` is reported as 0.145.
The E-score of `AGTTTCGA` is reported as -0.0418.
`AGTATATA` has an E-score of 0.0734.
For `ATAGGAAC`, the E-score was -0.164.
`ACCGAACT` has an E-score of 0.157.
`AGTATTAG` has an E-score of 0.133.
`CGAACCCC` gave an E-score of 0.116.
`GCGTAAGC` gave an E-score of 0.176.
`CTTTAACA` gave an E-score of -0.0253.
`ATGTCGAC` gave an E-score of 0.0216.
`GATGAGGA` has an E-score of -0.0721.
With `GATCCCCA` the E-score was -0.023.
`AACTTCGA` gave an E-score of -0.0898.
With `TGTGAACA` the E-score was -0.0503.
With `ACAACGCC` the E-score was 0.0135.
`CGGTGCTA` has an E-score of 0.0495.
For `CGGGCCTC`, the E-score was 0.231.
`ATCAGCCC` gave an E-score of -0.0703.

Repeated from above (block 2):
`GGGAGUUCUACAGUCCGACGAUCAAUCAGCCUUGGACAGUGCCGCCUUCCAGAGCAGAAUCACUGAGCCCCACGGCUGAAGCUGCAUCUGAUGAAACUGAUGGGUACUGCUUGUCCCUCAGCUCACACUUGGCUGGAAUUCUCGGGUGCCAA`: “RBNS enrichment (R)” 0.34.
Under “RBNS enrichment (R)”, `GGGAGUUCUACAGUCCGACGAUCGUGAAUCCUGGAUUCUGAGUAAGUUCCAGGGUUCUGGCCUUGAAGCCUUGGACUACACACAUUUCAAACAAAACCAAAUGCUGUCGUCGACAAGCCAGCACAGGCGAAGUUGGAAUUCUCGGGUGCCAA` is recorded as 0.234.
Under “RBNS enrichment (R)”, `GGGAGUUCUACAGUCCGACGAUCGUAAUUUAAGGUCUGUUCACAGCUGUAAUUAUUAUUAUUUUCUACAAUAAAUGGCACCUGCAUACAGAAAGGUUUGGGCUGUUCUCUAUCUGUGGAUGGGACUGGGCUGGUGGAAUUCUCGGGUGCCAA` is recorded as 0.406.
For `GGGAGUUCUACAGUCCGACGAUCCAUGUGCAUUAAAUACUUUGCCAGCACUGCCUUUGCCAGCAUCCUAAAUCUGGAGUUUUACAAAGAAGGAAACUGUAUCUUUAGGUUAAUCAAAGCUAUGCAUUUCAUAUUGGAAUUCUCGGGUGCCAA`, “RBNS enrichment (R)” read 0.601.
For `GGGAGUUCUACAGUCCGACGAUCUCUCAUUAACUGACAGUAUGCCCAUUUGUUUUUAUGGCUUUCUUAUCUAAACUGCACUGAUGAACUAGAUUAAAGCCUUGGGAGAUUUAUACUAUAAAUUCAGUGAUGGCUGGAAUUCUCGGGUGCCAA`, “RBNS enrichment (R)” read 2.73.
`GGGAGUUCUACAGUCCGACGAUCUCUGUAGACUUUUUCUUCUGGCCCUUGUCCCUGCCAGCAAAACGCCCCUUUUCUGAUCAUUCGUGCGCAGAGGGCCUCCCAGUAAUGCCACGCUCUCCAUGCUAGAGAGCUGGAAUUCUCGGGUGCCAA`: “RBNS enrichment (R)” 1.09.
`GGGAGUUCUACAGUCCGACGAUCGCCUCCCCUCCUUUUGAUGCUCAGCCCACUGUGAAGAGUGAGCUUGUUUUGUAAGCCACAUUGGUUCCUGUGAGCAUCUGACCGUCCCCCAUCGAGUAUUUCCCCCGGAAUGGAAUUCUCGGGUGCCAA`: “RBNS enrichment (R)” 0.978.
For `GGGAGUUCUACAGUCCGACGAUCAACUAGCUCUAAAGCUAGUUAGUGACAAAGUUGGAUACCAAAAAUAGCCAACACUAUGACAUAAAAACUUUGUGUUCAAAAUGUACAAUUCACUUUAUACAUUAUUAAUAUGGAAUUCUCGGGUGCCAA`, “RBNS enrichment (R)” read 0.344.
